# Assay results pooled from the literature.
# Numbered parts are unrelated; each lists some results of a single study.

# Series 1 — technique: competition protein-binding microarray; molecule type: double-stranded DNA, one strand shown; matrix: in vitro; concentration: 2 µM; added: Cbf1 competitor, 0.05 µM; reading: higher = stronger binding; shared flanks, not repeated: … GTCTTGATTCGCTTGACGCTGCTG
# Target: Phosphate system positive regulatory protein PHO4, full length, GST-tagged (PHO4, Saccharomyces cerevisiae, UniProt P07270, residues 1-312)
# Setting: whole 60-bp probe, lowest competitor level
# Target sequence (chain): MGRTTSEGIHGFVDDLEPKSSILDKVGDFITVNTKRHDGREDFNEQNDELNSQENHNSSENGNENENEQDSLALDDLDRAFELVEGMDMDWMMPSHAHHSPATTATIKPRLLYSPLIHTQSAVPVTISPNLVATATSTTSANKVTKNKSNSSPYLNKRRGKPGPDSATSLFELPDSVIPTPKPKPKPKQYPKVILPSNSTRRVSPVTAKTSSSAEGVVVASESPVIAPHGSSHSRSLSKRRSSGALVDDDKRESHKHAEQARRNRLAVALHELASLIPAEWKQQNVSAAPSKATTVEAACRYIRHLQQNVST
Oligonucleotide,fluorescence intensity
GTCTTGTCTCATTGCCGAGTGGGTGTCCCCACTTCA,5310 a.u.
CTAACGAAGGTTTTTCACGTGCCCTACAAGCCAAGT,14300 a.u.
GGGTGTTTTAAAAAGCACCTGACTTTTTCAATTGAA,4070 a.u.
CGGCCGGAGTTTTATCACATGGATGTTTCTTATTCC,7790 a.u.
AATTCCAATCAAAAAGTTGGTGTTAGGCTATACTGA,2950 a.u.
ACTCTTTCGCTAGTCCATGTGATTCTTTGAGAGTTT,10500 a.u.
TGCGCAACAACTTGCGCTGTGGGTGTATGTCTAGAA,4590 a.u.
GGAGAAGTTACTGTACACATGAAAACACGAATAACT,5640 a.u.

# Series 2 — technique: protein-binding microarray; molecule type: double-stranded DNA, one strand shown; matrix: in vitro; concentration: not given; reading: higher = stronger binding
# Target: Hepatocyte nuclear factor 3-beta, forkhead domain (FOXA2, Homo sapiens, UniProt Q9Y261, residues 142-269)
# Setting: k-mer, scored over probes, only values ≥0.25
# Residues (chain): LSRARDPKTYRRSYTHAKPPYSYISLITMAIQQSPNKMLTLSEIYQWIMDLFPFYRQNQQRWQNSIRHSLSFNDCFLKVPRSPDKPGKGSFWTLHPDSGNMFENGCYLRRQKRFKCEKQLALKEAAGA
Oligonucleotide,E-score
ACATAGTC,0.298
CAATCATA,0.294
ACTTTTAC,0.283
TATTCACA,0.298
ATCACCAT,0.315
TGTTAACA,0.405
GATGACAA,0.298
ACCTAATC,0.285

# Series 3 — technique: protein-binding microarray; molecule type: hairpin DNA; matrix: in vitro; concentration: not given; reference: not given; reading: higher = stronger binding
# Target: Microphthalmia-associated transcription factor, full length (MITF, Homo sapiens, UniProt O75030-10, residues 1-413)
# Setting: whole hairpin DNA, median over replicate spots
Oligonucleotide,median fluorescence
CACTTAGCACGTGGTTTTGGTCCTCCAAAACCACGTGCTAAGTGACACTC (5mC at 31),24800 a.u.
CACTCAGCACGTGATTTTGGTCCTCCAAAATCACGTGCTGAGTGACACTC (5mC at 5),26200 a.u.
CACTTACCACGTGATTTTGGTCCTCCAAAATCACGTGGTAAGTGACACTC (5mC at 7),28700 a.u.
CACTCGGCACGTGATTTTGGTCCTCCAAAATCACGTGCCGAGTGACACTC (5mC at 39),27000 a.u.
GAGGCCTAGCAGGTGCTGCCTCCTGGCAGCACCTGCTAGGCCTCACACTC (5mC at 33),5430 a.u.
CACTTAGCCGGTGATTTTGGTCCTCCAAAATCACCGGCTAAGTGACACTC (5mC at 35),4520 a.u.
CACTTAGCACGTGCGTTTGGTCCTCCAAACGCACGTGCTAAGTGACACTC (5mC at 14),18600 a.u.
CACTTAGCGCGTGATTTTGGTCCTCCAAAATCACGCGCTAAGTGACACTC (5mC at 36),19000 a.u.

# Series 4 — read-out: binding; technique: phage display NGS; molecule type: peptide; concentration: concentration not given; setting: panning round 2; reference: input library
# Target: UDP-N-acetylglucosamine--peptide N-acetylglucosaminyltransferase 110 kDa subunit (OGT, Homo sapiens, UniProt O15294)
# UniProt O15294, sequence (whole entry, looked up): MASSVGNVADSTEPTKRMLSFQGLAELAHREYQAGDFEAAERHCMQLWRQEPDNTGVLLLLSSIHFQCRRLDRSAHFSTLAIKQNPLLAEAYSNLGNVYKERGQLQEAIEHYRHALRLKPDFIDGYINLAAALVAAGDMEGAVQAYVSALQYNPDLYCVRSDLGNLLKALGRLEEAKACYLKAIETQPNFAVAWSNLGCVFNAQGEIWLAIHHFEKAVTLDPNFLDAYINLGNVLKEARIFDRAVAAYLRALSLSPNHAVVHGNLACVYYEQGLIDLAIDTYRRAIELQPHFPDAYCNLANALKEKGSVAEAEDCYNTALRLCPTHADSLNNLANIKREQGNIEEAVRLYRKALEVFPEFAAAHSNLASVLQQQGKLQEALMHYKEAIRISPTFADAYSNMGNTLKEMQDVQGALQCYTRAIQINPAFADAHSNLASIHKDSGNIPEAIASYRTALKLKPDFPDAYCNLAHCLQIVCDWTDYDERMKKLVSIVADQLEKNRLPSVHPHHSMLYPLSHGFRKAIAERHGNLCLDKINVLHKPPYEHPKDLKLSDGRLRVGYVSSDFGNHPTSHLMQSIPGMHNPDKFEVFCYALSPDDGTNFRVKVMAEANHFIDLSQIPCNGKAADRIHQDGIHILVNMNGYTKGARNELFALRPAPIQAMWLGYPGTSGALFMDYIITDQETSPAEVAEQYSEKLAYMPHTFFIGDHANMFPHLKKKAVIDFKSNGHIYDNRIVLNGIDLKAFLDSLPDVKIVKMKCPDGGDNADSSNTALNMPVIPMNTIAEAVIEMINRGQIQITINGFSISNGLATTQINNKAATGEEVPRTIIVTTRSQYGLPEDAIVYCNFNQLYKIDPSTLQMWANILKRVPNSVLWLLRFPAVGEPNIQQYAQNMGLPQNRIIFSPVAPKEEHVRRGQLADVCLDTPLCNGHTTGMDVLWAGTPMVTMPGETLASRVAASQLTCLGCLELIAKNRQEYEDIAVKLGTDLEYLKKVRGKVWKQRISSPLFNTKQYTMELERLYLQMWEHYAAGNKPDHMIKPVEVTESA
Molecule,enrichment fold change
YGPHNHFHPHDHMP,5.89
HTPWRPQRNEHHRYV,6.2
RTFFPMYEIVIGMT,7.35
NLYRPQYQINFFDTI,85.4
EEQEHPFTPHYQIII,20.4
VVPHMMHQWEHHHA,19.7
TNMYRYPTHAHFQIK,4.27
VDTWHQRHHHQFSVD,5.23
DFMGLEFMPVYQIRI,14.8
YRHPPWDHHLDHHGR,5.49
RFMPVYQMNVPEIDV,10
EYTPEYQIHYQVVQS,17.7
EHYHMHDIMKNQHSH,9.1
SQHVFINYHNHTHT,4.84
HWHLHDSLYHQVDIH,8.98
TARNHHAAHYSLHRG,10.3
VMELQFLPHYQIEAF,9.9

# Excerpt of the above (series 2):
Oligonucleotide,E-score
ACATAGTC,0.298
CAATCATA,0.294
